# Measurements collected from several papers.
# A part holds a random share of what one study measured. “And” joins repeats or separate records; there may be more than shown.
# UniProt O75716, sequence (whole entry, looked up): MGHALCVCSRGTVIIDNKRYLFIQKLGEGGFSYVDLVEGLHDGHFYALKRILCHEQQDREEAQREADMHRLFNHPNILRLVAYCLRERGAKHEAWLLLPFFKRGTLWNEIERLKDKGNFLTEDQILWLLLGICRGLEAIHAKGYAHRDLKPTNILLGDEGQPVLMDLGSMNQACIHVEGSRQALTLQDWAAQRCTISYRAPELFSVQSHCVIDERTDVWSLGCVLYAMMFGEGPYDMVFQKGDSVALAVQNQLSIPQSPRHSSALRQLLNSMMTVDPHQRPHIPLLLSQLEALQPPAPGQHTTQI

# Block 1 — effect on: peptide-MHC binding; form: peptide; concentration: concentration not given
# Target: HLA class I histocompatibility antigen, C alpha chain, allele C*04:01 (Homo sapiens, UniProt P10321)
Sequence,binding
RPMTYKAAL,inactive
REWGWRIPF,inactive
YYSNKVFPI,inactive
ETTNWLWTF,inactive
RRRKGWIPL,inactive
FETMVFPAV,inactive
LEMQHLISL,inactive
KGPPAALTL,inactive

# Block 2 — effect on: ligand displacement; concentration: 10 µM
# Target: Muscarinic acetylcholine receptor M1 (CHRM1, Homo sapiens, UniProt P11229)
# UniProt P11229, sequence (whole entry, looked up): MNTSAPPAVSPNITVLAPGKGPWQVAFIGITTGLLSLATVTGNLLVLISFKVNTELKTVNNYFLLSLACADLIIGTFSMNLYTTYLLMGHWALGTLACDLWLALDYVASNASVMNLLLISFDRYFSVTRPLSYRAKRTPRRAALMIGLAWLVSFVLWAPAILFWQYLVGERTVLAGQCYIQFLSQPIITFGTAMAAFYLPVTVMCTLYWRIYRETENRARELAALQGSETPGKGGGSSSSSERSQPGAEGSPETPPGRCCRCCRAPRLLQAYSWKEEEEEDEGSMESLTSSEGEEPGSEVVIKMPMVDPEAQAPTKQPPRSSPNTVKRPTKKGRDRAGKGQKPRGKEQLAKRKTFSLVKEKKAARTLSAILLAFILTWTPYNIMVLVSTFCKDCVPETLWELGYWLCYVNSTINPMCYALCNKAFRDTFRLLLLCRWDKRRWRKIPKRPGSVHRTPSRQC
SMILES,inhibition
COc1cc(C(=O)O)ncc1C#Cc1ccccc1NS(=O)(=O)c1cccc2c(N(C)C)ccnc12,25%
CN1CCN(c2cnc3c(C4CCN(C(=O)c5ccc(OC(F)(F)F)cc5N)CC4)ncnc3c2)CC1,3.17%
O=C(NS(=O)(=O)c1ccc(NCC2CCOCC2)c([N+](=O)[O-])c1)c1ccc(N2CCN(Cc3ccc(C(F)(F)F)cc3-c3ccc(Cl)cc3)CC2)cc1Oc1cnc2[nH]ccc2c1,-6.07%

# Other studies, line by line
SMILES,target or system,test,system,setting,how to read,measurement,value
CC(C)S(=O)(=O)c1cc2c(Nc3ccc4sc(C5CCCC5)nc4c3)ccnc2cc1OCCO,L929 RIPK3 knockout,,,50 µM,,viability,54.2% and 52.4% and 52% and 54.6% and 56.2%
N/C(=N\[N+](=O)[O-])N/N=C\c1ccc(-c2cccc([N+](=O)[O-])c2)o1,"Serine/threonine-protein kinase 16 (STK16, Homo sapiens, UniProt O75716)","enzyme activity, inhibitor",,0.5 µM,baseline: control,remaining activity,105%
CC(C)(C)c1nc(-c2cccc(NS(=O)(=O)c3c(F)cccc3F)c2F)c(-c2ccnc(N)n2)s1,L929,,MEM 10% FBS,25 µM,,viability,51% and 55.2% and 54.4%
N#Cc1c(Oc2ccc(F)c(NC(=O)Cc3cccc(C(F)(F)F)c3)c2)ccc2nc(NC(=O)C3CC3)sc12,L929,"necroptosis protection, CCK-8",,"20 µM, together with: TNF-α-induced",,viability,86.3%
CC[C@H](C)c1nc2cc(Nc3ccnc4ccc(S(=O)(=O)C(C)C)cc34)ccc2s1.Cl,HT-29,"necroptosis protection, CCK-8",,"0.078 µM, together with: TNF-α SMAC mimetic zVAD",,viability,16.2% and 19% and 19.3% and 15.7%

# Some of these lines once more (other studies, line by line):
SMILES,target or system,test,system,setting,how to read,measurement,value
N/C(=N\[N+](=O)[O-])N/N=C\c1ccc(-c2cccc([N+](=O)[O-])c2)o1,"Serine/threonine-protein kinase 16 (STK16, Homo sapiens, UniProt O75716)","enzyme activity, inhibitor",,0.5 µM,baseline: control,remaining activity,105%
CC(C)(C)c1nc(-c2cccc(NS(=O)(=O)c3c(F)cccc3F)c2F)c(-c2ccnc(N)n2)s1,L929,,MEM 10% FBS,25 µM,,viability,51% and 55.2% and 54.4%
